Measurements collected from several papers.
± gives the spread as reported.
U2AF2: U2AF2 148-342 (Homo sapiens, UniProt P26368)
UniProt P26368, sequence (whole entry, looked up): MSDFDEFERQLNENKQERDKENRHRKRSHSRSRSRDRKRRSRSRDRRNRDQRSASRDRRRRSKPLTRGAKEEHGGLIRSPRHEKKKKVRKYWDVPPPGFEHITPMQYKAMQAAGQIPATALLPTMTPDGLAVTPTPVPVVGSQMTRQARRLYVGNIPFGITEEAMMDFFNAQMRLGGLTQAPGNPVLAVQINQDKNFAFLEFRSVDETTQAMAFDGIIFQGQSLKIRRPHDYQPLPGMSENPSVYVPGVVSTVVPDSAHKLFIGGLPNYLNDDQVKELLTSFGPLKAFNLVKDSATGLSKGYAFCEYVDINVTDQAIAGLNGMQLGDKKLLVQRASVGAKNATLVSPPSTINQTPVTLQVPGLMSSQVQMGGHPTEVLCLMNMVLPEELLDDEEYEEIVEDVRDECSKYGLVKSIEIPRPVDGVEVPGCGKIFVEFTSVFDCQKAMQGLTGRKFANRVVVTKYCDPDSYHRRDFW
B1: Tra2-beta (human); sequence looked up; chain SDSGEQNYGERESRSASRSGSAHGSGKSARHTPARSRSKEDSRRSRSKSRSRSESRSRSRRSSRRHYTRSRSRSRSHRRSRSRSYSRDYRRRHSHSHSPMSTRRRHVGNRANPDPNCCLGVFGLSLYTTERDLREVFSKYGPIADVSIVYDQQSRRSRGFAFVYFENVDDAKEAKERANGMELDGRRIRVDFSITKRPHTPTPGIYMGRPTYGSSRRRDYYDRGYDRGYDDRDYYSRSYRGGGGGGGGWRAAQDRDQIYRRRSPSPYYSRGGYRSRSRSRSYSPRRY
B2: enzyme (Bacteroides ovatus, UniProt A0ABU3IP51); chain ESITSPDGQLKLNFSVNMQGEPVYELSYKGKEVIKPSKLGLELKNDPGLINGFTLADIKTSAFDETWEPVWGEVKSIRNHYNEMAVTLNQKAQDRNLIICFRLYNDGLGFRYEFPQQKNLNYFVIKEEHSQFAMAGDHTAFWIPGDYDTQEYDYTESKLSEIRGLLQGAITPNASQTPFSPTGVQTSLQMKTADGLYINLHEAALVDYSCMHLNLDDQNLIFESWLTPDAKGDKGYMQTPCRSPWRTVIVSDDARDILASKLTLNLNEPCAYEDVSWIKPVKYIGVWWEMITGKSSWSYTDDVYSVKLGQTDYSQTKPSGRHAANNDKVKRYIDFASEHGFDQILVEGWNEGWEDWFGNSKDYVFDFVTPYPDFDVKMLNAYAKEKGVKLMMHHETSASVRNYERHLDKAYQFMIDNGYNAVKSGYVGNIIPRGEHHYGQWMNNHYLYAVEKAAEYKICVNAHEATRPTGLCRTYPNLIGNESARGTEYEAFAGNKPFHTTLLPFTRQIGGPMDYTPGIFDTKLSFLSGDHSFVRTTLAKQLALYVTMYSPLQMAADLPESYERHMDAFQFIKDVVVDWDDSKYLEAEPGDYITVARKAKGTDNWFVGGITDENPRTSAFTLDFLEPGKQYVATLYADGKEADFEKNPTSYQIKKGLVTNKNKMSVKLARSGGFAVSLIEATPADLKTIKKWK
B3: SCO6712 S292F/V290N/Y229F (Streptomyces coelicolor, UniProt Q9XAL8); chain AKGITARTAPAGGEVRHLKMYAEKLADGQMGYGFEKGKASVPGPLIEVNEGDTLHIEFTNTMDVRASLHVHGLDYEISSDGTAMNKSDVEPGGTRTYTWRTHKPGRRDDGTWRPGSAGYWHYHDHVVGTEHGTGGIRNGLYGPVIVRRKGDVLPDATHTIVFNDMTINNRKPHTGPDFEATVGDRVEIVMITHGEFYHTFHMHGHRWADNRTGILTGPDDPSRVIDNKITGPADSFGFQIIAGEGVGAGAWMYHCHNQFHSDMGMVGLFLVKKPDGTIPGYEPHEHGGATAKSGESGEPTGGAAAHEHEH
B4: aspC A106G/A17N/A218G/A278L/A281T/A8Q/D18E/F210I/F212I/F350Y/G15S/G249S/I187A/I279A/I29V/I33V/I341V/I5L/I68L/I71L/L46M/M321L/M380L/N285S/N30D/N64T/S129T/S135A/S273G/S351L/T100S/V125I/V136I/V375I/Y244C (Escherichia coli, UniProt P00509); chain MFENLTAQPADPILSLNELFRADERPGKVDLGVGVYKDETGKTPVMTSVKKAEQYLLENETTKTYLGLDGLPEFGRCTQELLFGKGSALINDKRARTAQSPGGTGGLRVAADFLAKNTSVKRVWISNPTWPNHKAIFNSAGLEVREYAYYDAENHTLDFDALINSLNEAQAGDVVLFHGCCHNPTGADPTLEQWQTLAQLSVEKGWLPLIDIAYQGFGRGLEEDAEGLRAFAAMHKELIVASSCSKNFSLYNERVGACTLVAADSETVDRAFGQMKALARTNYSSPPAHGASVVATILSNDALRAIWEQELTDMRQRIQRLRQLFVNTLQEKGANRDFSFVIKQNGMFSYLGLTKEQVLRLREEFGVYAVASGRINVAGLTPDNMAPLCEAIVAVL
B5: enzyme (Lacticaseibacillus rhamnosus, UniProt A0A7S7JIA0); chain MSEPLPRIKRYEDLGLGLFIHWGLYSQLAVGEWTEFIHHRSRSEYEKLIATFTANQFDAEAIAHAAKMMGAKYIVLTTKHHEGFFLYDTKGLSSFDVMHSPANRDLIAEFVAACRKEGLLPFFYVATYDWHSPLYEENFPAYLDYLKASVEVLCRHYGPVGGFWFDGNWNKKEADWQLPALYGMIRKYQPDAIIVNNTGLKNRGKVSDPEIDVVTYERRTPDEIYHGAPNAKYVAGEISMTLNQHWGIATNDLNYKSPAEVIETVAHARHIGANILVNIGLTGQGAIPASAKTYMALLGRWTTMAAPALYRGRPTAIVSGQGARDFVLHADAHDYLCVFDLKVVGNDNVVLGGEGVNPRSFVGIDRPIESVYWLDNEEYLSFTQDLHKRVLTVDATGYPYGSDWVVRIAQIDYKSENRTVKSD
B6: enzyme H130Y (Salinispora arenicola, UniProt A8M783); chain MASTPWISFTTDYGLADGFVAACHGVLARLAPTARVIDVTHLVPPGDVRRGAAVLAQTVPYLPAAVHVAVVDPGVGTARRAIALTAGNGLLVGPDNGLLLDAATALGGVDAAVELTNPDWLGARMSATFYGRDVFAPVAARLALGAPLADAGPAVEPGALVRLPTPLVQPETDGFTAEVLTVDHFGNVQLAATGALLESLPRSLRVAHRPAVHARTFDDAPPGGLLVHVDSAGLVAVAVNGGRAADLLAVTPGDQLRVTAG
B7: enzyme (Pseudomonas poae, UniProt A0A2S9EJ63); chain MSTQHYDYIIVGGGSAGSVLANRLSAQADKRVLLIEAGADTPEHDTPTDILDGLQPWLPRLAGERYFWPGLNILRASEHGDIPREPQLYEQARILGGGSSVNMMVANRGLPRDYDEWARLGADGWDWQGVLPYFRKLERDLDFGHSHPEQHGQDGPIPIARVDSRHWGSFTRASAQALHTQGLNDIVDQNGRFEDGYFAPAVAIEHDQRVSSARAYLNAAVRARPNLSVWADTTVRQLTVKGQRVTGVQAVRDGRTVELAGDEVILAAGALQSPAFLLRAGIGPADQLRDLGIEVIADRPGVGRNLWDHSSIGLSASLHHPQVPSDEPGAAHLLAARVSSGVEPSVPGDLYLGIAPNAALGLASAVLWVNKPSSSGHLRLRSKDPADYPAVEFNLLSDRRDLERLRQGLRLLARVFAHPAVAAFSGPPRLSRFAQASNEGPLLSELLANDAQLERYLRTHVGGVWHASGTCRIGRADDPQAVVDHAGRVHGVQGLRVADASVFPSIPTANTNLPTLMIAEKIAEAILANA
UniProt P78804, sequence (whole entry, looked up): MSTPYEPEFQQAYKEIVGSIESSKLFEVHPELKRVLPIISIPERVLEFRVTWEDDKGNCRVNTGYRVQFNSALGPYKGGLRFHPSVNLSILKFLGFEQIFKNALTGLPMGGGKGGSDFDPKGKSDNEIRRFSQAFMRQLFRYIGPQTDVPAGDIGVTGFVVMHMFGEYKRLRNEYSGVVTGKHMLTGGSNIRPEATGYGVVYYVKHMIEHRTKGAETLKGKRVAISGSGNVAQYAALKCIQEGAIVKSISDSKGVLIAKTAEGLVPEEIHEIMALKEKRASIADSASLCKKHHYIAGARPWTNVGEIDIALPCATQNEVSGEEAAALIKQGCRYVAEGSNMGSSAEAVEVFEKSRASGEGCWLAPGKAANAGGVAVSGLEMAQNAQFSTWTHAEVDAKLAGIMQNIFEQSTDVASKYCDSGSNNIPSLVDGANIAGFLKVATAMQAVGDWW

enzyme (Pseudanabaena biceps, UniProt L8N0N6)
kcat/Km (NC(=O)c1ccc[n+]([C@@H]2O[C@H](COP(=O)(O)OP(=O)(O)OC[C@H]3O[C@@H](n4cnc5c(N)ncnc54)[C@H](O)[C@@H]3O)[C@@H](O)[C@H]2O)c1; steady-state kinetics; pH 7.4, 30 °C, apparent, cofactor varied): 6960 ± 860 M⁻¹ s⁻¹

gdh N192L/N97F (Bacillus subtilis)
kcat/Km (NC(=O)c1ccc[n+]([C@@H]2O[C@H](COP(=O)(O)OP(=O)(O)OC[C@H]3O[C@@H](n4cnc5c(N)ncnc54)[C@H](O)[C@@H]3O)[C@@H](O)[C@H]2O)c1; steady-state kinetics; pH 7, 50 °C): 63200 ± 4500 M⁻¹ s⁻¹

B1 (Tra2-beta)
log2 fold change (CYB5R4 knockout human cells; PP4 interaction, 3xFLAG-PP4C IP-MS; concentration not given; relative to: CYB5R4 KO over parental): 0.06

enzyme (UniProt F0RRL2)
kcat/Km (O=P(O)(O)O; steady-state kinetics; pH 5.5, 37 °C, apparent): 28600 M⁻¹ s⁻¹

B2 (enzyme)
kcat/Km (O=[N+]([O-])c1ccc(O[C@H]2O[C@H](CO)[C@@H](O)[C@H](O)[C@H]2O)cc1; steady-state kinetics; pH 6.6): 582000 M⁻¹ s⁻¹

B3 (SCO6712 S292F/V290N/Y229F)
kcat/Km (CCn1c(=NN=c2sc3cc(S(=O)(=O)O)ccc3n2CC)sc2cc(S(=O)(=O)O)ccc21; steady-state kinetics; pH 7, 37 °C, NaCl 150 mM, added: O2 cosubstrate): 1400 ± 100 M⁻¹ s⁻¹

CUUGUACAU (ssRNA)
Kd (U2AF2; sequencing of bound RNA; RNA; motif only): 2.7 µM

HNL E79H/H103V/K236M/T11G (Hevea brasiliensis)
kcat/Km (CC(=O)Oc1ccc([N+](=O)[O-])cc1; steady-state kinetics; pH 7.2, 22 °C): 8.17 M⁻¹ s⁻¹

B4
kcat/Km (O=C(O)C(=O)Cc1ccccc1; steady-state kinetics; pH 7.5, 25 °C, added: PMP 20 µM, ammonium acetate 10 mM): 340 M⁻¹ s⁻¹

human eIF4A1
log2 fold change (CYB5R4 knockout human cells; PP4 interaction, 3xFLAG-PP4C IP-MS; concentration not given; relative to: CYB5R4 KO over parental): -1.12

enzyme (Tannerella forsythia, UniProt G8UMQ6)
kcat/Km (C[C@@H]1O[C@@H](Oc2ccc([N+](=O)[O-])cc2Cl)[C@@H](O)[C@H](O)[C@@H]1O; steady-state kinetics; pH 8.4, 40 °C): 200000 M⁻¹ s⁻¹

B5 (enzyme)
kcat/Km (C[C@@H]1O[C@@H](Oc2ccc([N+](=O)[O-])cc2)[C@@H](O)[C@H](O)[C@@H]1O; steady-state kinetics; pH 5, 40 °C): 14700 M⁻¹ s⁻¹

acsA (Pseudomonas chlororaphis, UniProt Q5CD72)
kcat/Km (C#CCCC(=O)O; steady-state kinetics; pH 7): 50 ± 16.7 M⁻¹ s⁻¹

B6 (enzyme H130Y)
kcat/Km (C[S+](CC[C@H](N)C(=O)O)C[C@H]1O[C@@H](n2cnc3c(N)ncnc32)[C@H](O)[C@@H]1O; steady-state kinetics; pH 7.9, 37 °C, apparent, added: 1-200 µM SAM): 383 M⁻¹ s⁻¹

CCAUUUUCU (ssRNA)
Kd (U2AF2; sequencing of bound RNA; RNA; motif only): 1.09 µM

enzyme (Schizosaccharomyces pombe, UniProt P78804)
kcat/Km (NC(=O)c1ccc[n+]([C@@H]2O[C@H](COP(=O)(O)OP(=O)(O)OC[C@H]3O[C@@H](n4cnc5c(N)ncnc54)[C@H](O)[C@@H]3O)[C@@H](O)[C@H]2O)c1; steady-state kinetics; pH 7, 30 °C, apparent): 2.8 ± 0.3 M⁻¹ s⁻¹

enzyme (Ectocarpus siliculosus, UniProt D7FYY3)
kcat/Km (C=C(OP(=O)(O)O)C(=O)O; steady-state kinetics; pH 5.5, 25 °C, added: 2 mM ADP): 27000 M⁻¹ s⁻¹

B7 (enzyme)
kcat/Km (O=Cc1ccc(CO)o1; steady-state kinetics; pH 8, 30 °C, added: 2 µM FAD): 3.8 M⁻¹ s⁻¹

Some of these lines once more:
B6 (enzyme H130Y)
kcat/Km (C[S+](CC[C@H](N)C(=O)O)C[C@H]1O[C@@H](n2cnc3c(N)ncnc32)[C@H](O)[C@@H]1O; steady-state kinetics; pH 7.9, 37 °C, apparent, added: 1-200 µM SAM): 383 M⁻¹ s⁻¹

enzyme (Schizosaccharomyces pombe, UniProt P78804)
kcat/Km (NC(=O)c1ccc[n+]([C@@H]2O[C@H](COP(=O)(O)OP(=O)(O)OC[C@H]3O[C@@H](n4cnc5c(N)ncnc54)[C@H](O)[C@@H]3O)[C@@H](O)[C@H]2O)c1; steady-state kinetics; pH 7, 30 °C, apparent): 2.8 ± 0.3 M⁻¹ s⁻¹
